Results gathered from unrelated publications.
Each line is one published result; not all experiments were run side by side. ± marks the error that the study gave.

The IC50 of `Cc1cc(C)nc(Sc2nc3sccn3c2[N+](=O)[O-])n1` is reported as 4940 nM (Genome polyprotein, 3C protease (rhinovirus B14, UniProt P03303); protease activity, inhibitor, SAMDI-MS).
For `Cc1cc(O)cc(C)c1C[C@H](N)C(=O)N[C@H](CCCNC(=N)N)C(=O)N[C@@H](Cc1ccccc1)C(=O)N(C)CC(=O)N(C)Cc1cc(C(F)(F)F)cc(C(F)(F)F)c1`, the Ki was 4.86 ± 0.91 nM (Delta-type opioid receptor (OPRD1, Homo sapiens, UniProt P41143, S143C)).
`CN(C)[C@H](CNC(=O)/C=C/c1cccc2ccccc12)Cc1ccc(O)cc1` gave a Ki of 1200 nM (D(1A) dopamine receptor (DRD1, Homo sapiens, UniProt P21728); cell-free assay).
With `Cc1cccc(/N=N/c2cccc([B-](F)(F)F)c2)c1` the Ki was 212000 nM (Chymotrypsinogen A (Bos taurus, UniProt P00766); enzyme activity, inhibitor; pH 7.81, 25 °C, cis-enriched photostationary state, with: Suc-AAPF-AMC).
`COc1cc2c(cc1O)C(CCc1ccc(Cl)cc1)N(C)CC2` (centres unmarked) has a Ki of 4500 nM (Sodium-dependent dopamine transporter (SLC6A3, Homo sapiens, UniProt Q01959); cell-free assay, radioligand).
With `CSCC[C@H](NC(=O)[C@H](CCC(N)=O)NC(=O)[C@H](CCCCN)NC(=O)[C@H](CCCNC(=N)N)NC(=O)[C@H](Cc1ccc(O)cc1)NC(=O)[C@H](CCCNC(=N)N)NC(=O)[C@H](CO)NC(=O)[C@H](Cc1ccc(O)cc1)NC(=O)[C@H](CO)NC(=O)[C@H](CC(=O)O)NC(=O)[C@@H](NC(=O)[C@@H](N)Cc1ccccc1)[C@@H](C)O)C(=O)N[C@@H](C)C(=O)N[C@H](C(=O)N[C@@H](CCCCN)C(=O)N[C@@H](CCCCN)C(=O)N[C@@H](Cc1ccc(O)cc1)C(=O)N[C@@H](CC(C)C)C(=O)N[C@@H](C)C(=O)N[C@@H](C)C(=O)N[C@H](C(=O)N[C@@H](CC(C)C)C(=O)NCC(=O)N[C@@H](CCCCN)C(=O)N[C@@H](CCCNC(=N)N)C(=O)N[C@@H](Cc1ccc(O)cc1)C(=O)N[C@@H](CCCCN)C(=O)N[C@@H](CCC(N)=O)C(=O)N[C@@H](CCCCn1cc(C[C@H](NC(=O)CNC(=O)[C@H](CO)NC(=O)[C@H](CCCNC(=N)N)NC(=O)[C@H](CO)NC(=O)[C@H](CC(C)C)NC(=O)[C@H](CC(C)C)NC(=O)CNC(=O)[C@H](C)NC(=O)[C@H](CC(C)C)NC(=O)[C@H](CCCNC(=N)N)NC(=O)[C@H](Cc2c[nH]cn2)NC(=O)[C@@H](NC(=O)[C@@H](N)C(C)C)[C@@H](C)O)C(=O)N[C@H](C(=O)N[C@H](C(=O)N[C@@H](CCCCN)C(=O)N[C@@H](CC(N)=O)C(=O)N[C@@H](CC(N)=O)C(=O)N[C@@H](Cc2ccccc2)C(=O)N[C@H](C(=O)N2CCC[C@H]2C(=O)N[C@H](C(=O)N[C@@H](CC(N)=O)C(=O)N[C@H](C(=O)NCC(=O)N[C@@H](CO)C(=O)N[C@@H](CCCCN)C(=O)N[C@@H](C)C(=O)N[C@@H](Cc2ccccc2)C(N)=O)C(C)C)[C@@H](C)O)C(C)C)C(C)C)C(C)C)nn1)C(=O)N[C@H](C(=O)N[C@@H](CCCCN)C(=O)N[C@@H](CC(N)=O)C(=O)N[C@@H](CCCCN)C(N)=O)C(C)C)C(C)C)C(C)C` the Kb was 22 nM (Amylin receptor AMY1, CALCR/RAMP1 (Homo sapiens, UniProt O60894+P30988); cAMP accumulation, antagonist, LANCE cAMP; COS-7 cells, transfected; 15 min).
For `CC(C)[C@H](NC(=O)[C@@H]1CSSC(C)(C)[C@H](NC(=O)[C@@H](N)CC(=O)O)C(=O)N[C@@H](Cc2ccccc2)C(=O)N[C@@H](Cc2c[nH]c3ccccc23)C(=O)N[C@@H](CCCCN)C(=O)N[C@@H](Cc2ccc(O)cc2)C(=O)N1)C(=O)O`, the EC50 was 0.398 nM (Urotensin-2 receptor (UTS2R, Homo sapiens, UniProt Q9UKP6, L276A); IP1 accumulation, agonist, HTRF; HEK293T; 1 h, 37 °C, L276A mutant, 6.53).
For `Cc1cc(C(c2ccc(Cl)cc2)c2ccc(Cl)cc2)sc1C(=O)N[C@@H](CCCNC(=N)N)C(=O)O`, the EC50 was 1.78 nM (C3a anaphylatoxin chemotactic receptor (C3ar1, Mus musculus, UniProt O09047); cAMP response, agonist, GloSensor cAMP; Gi signalling).
With `O=C(O)CCn1c(=O)oc2cc(Cl)c(Cl)cc21` the EC50 was greater than 100000 nM (Kappa-type opioid receptor (OPRK1, Homo sapiens, UniProt P41145); agonist).
The Kb of `CSCC[C@H](NC(=O)[C@H](CCC(N)=O)NC(=O)[C@H](CCCCN)NC(=O)[C@H](CCCNC(=N)N)NC(=O)[C@H](Cc1ccc(O)cc1)NC(=O)[C@H](CCCNC(=N)N)NC(=O)[C@H](CO)NC(=O)[C@H](Cc1ccc(O)cc1)NC(=O)[C@H](CO)NC(=O)[C@H](CC(=O)O)NC(=O)[C@@H](NC(=O)[C@@H](N)Cc1ccccc1)[C@@H](C)O)C(=O)N[C@@H](C)C(=O)N[C@H](C(=O)N[C@@H](CCCCN)C(=O)N[C@@H](CCCCn1cc(C[C@H](NC(=O)CNC(=O)[C@H](CO)NC(=O)[C@H](CCCNC(=N)N)NC(=O)[C@H](CO)NC(=O)[C@H](CC(C)C)NC(=O)[C@H](CC(C)C)NC(=O)CNC(=O)[C@H](C)NC(=O)[C@H](CC(C)C)NC(=O)[C@H](CCCNC(=N)N)NC(=O)[C@H](Cc2c[nH]cn2)NC(=O)[C@@H](NC(=O)[C@@H](N)C(C)C)[C@@H](C)O)C(=O)N[C@H](C(=O)N[C@H](C(=O)N[C@@H](CCCCN)C(=O)N[C@@H](CC(N)=O)C(=O)N[C@@H](CC(N)=O)C(=O)N[C@@H](Cc2ccccc2)C(=O)N[C@H](C(=O)N2CCC[C@H]2C(=O)N[C@H](C(=O)N[C@@H](CC(N)=O)C(=O)N[C@H](C(=O)NCC(=O)N[C@@H](CO)C(=O)N[C@@H](CCCCN)C(=O)N[C@@H](C)C(=O)N[C@@H](Cc2ccccc2)C(N)=O)C(C)C)[C@@H](C)O)C(C)C)C(C)C)C(C)C)nn1)C(=O)N[C@@H](Cc1ccc(O)cc1)C(=O)N[C@@H](CC(C)C)C(=O)N[C@@H](C)C(=O)N[C@@H](C)C(=O)N[C@H](C(=O)N[C@@H](CC(C)C)C(=O)NCC(=O)N[C@@H](CCCCN)C(=O)N[C@@H](CCCNC(=N)N)C(=O)N[C@@H](Cc1ccc(O)cc1)C(=O)N[C@@H](CCCCN)C(=O)N[C@@H](CCC(N)=O)C(=O)N[C@@H](CCCNC(=N)N)C(=O)N[C@H](C(=O)N[C@@H](CCCCN)C(=O)N[C@@H](CC(N)=O)C(=O)N[C@@H](CCCCN)C(N)=O)C(C)C)C(C)C)C(C)C` is reported as 1 nM (Calcitonin-gene-related peptide receptor, CALCRL/RAMP1 (Homo sapiens, UniProt O60894+Q16602); cAMP accumulation, antagonist, LANCE cAMP; COS-7 cells, transfected; 15 min).
With `C[C@@H](Cc1ccsc1)NC(=O)NC[C@H](Cc1ccc(O)cc1)N(C)C` the Ki was greater than 50000 nM (D(1B) dopamine receptor (DRD5, Homo sapiens, UniProt P21918); cell-free assay).

Repeated from above:
The Kb of `CSCC[C@H](NC(=O)[C@H](CCC(N)=O)NC(=O)[C@H](CCCCN)NC(=O)[C@H](CCCNC(=N)N)NC(=O)[C@H](Cc1ccc(O)cc1)NC(=O)[C@H](CCCNC(=N)N)NC(=O)[C@H](CO)NC(=O)[C@H](Cc1ccc(O)cc1)NC(=O)[C@H](CO)NC(=O)[C@H](CC(=O)O)NC(=O)[C@@H](NC(=O)[C@@H](N)Cc1ccccc1)[C@@H](C)O)C(=O)N[C@@H](C)C(=O)N[C@H](C(=O)N[C@@H](CCCCN)C(=O)N[C@@H](CCCCn1cc(C[C@H](NC(=O)CNC(=O)[C@H](CO)NC(=O)[C@H](CCCNC(=N)N)NC(=O)[C@H](CO)NC(=O)[C@H](CC(C)C)NC(=O)[C@H](CC(C)C)NC(=O)CNC(=O)[C@H](C)NC(=O)[C@H](CC(C)C)NC(=O)[C@H](CCCNC(=N)N)NC(=O)[C@H](Cc2c[nH]cn2)NC(=O)[C@@H](NC(=O)[C@@H](N)C(C)C)[C@@H](C)O)C(=O)N[C@H](C(=O)N[C@H](C(=O)N[C@@H](CCCCN)C(=O)N[C@@H](CC(N)=O)C(=O)N[C@@H](CC(N)=O)C(=O)N[C@@H](Cc2ccccc2)C(=O)N[C@H](C(=O)N2CCC[C@H]2C(=O)N[C@H](C(=O)N[C@@H](CC(N)=O)C(=O)N[C@H](C(=O)NCC(=O)N[C@@H](CO)C(=O)N[C@@H](CCCCN)C(=O)N[C@@H](C)C(=O)N[C@@H](Cc2ccccc2)C(N)=O)C(C)C)[C@@H](C)O)C(C)C)C(C)C)C(C)C)nn1)C(=O)N[C@@H](Cc1ccc(O)cc1)C(=O)N[C@@H](CC(C)C)C(=O)N[C@@H](C)C(=O)N[C@@H](C)C(=O)N[C@H](C(=O)N[C@@H](CC(C)C)C(=O)NCC(=O)N[C@@H](CCCCN)C(=O)N[C@@H](CCCNC(=N)N)C(=O)N[C@@H](Cc1ccc(O)cc1)C(=O)N[C@@H](CCCCN)C(=O)N[C@@H](CCC(N)=O)C(=O)N[C@@H](CCCNC(=N)N)C(=O)N[C@H](C(=O)N[C@@H](CCCCN)C(=O)N[C@@H](CC(N)=O)C(=O)N[C@@H](CCCCN)C(N)=O)C(C)C)C(C)C)C(C)C` is reported as 1 nM (Calcitonin-gene-related peptide receptor, CALCRL/RAMP1 (Homo sapiens, UniProt O60894+Q16602); cAMP accumulation, antagonist, LANCE cAMP; COS-7 cells, transfected; 15 min).
